Measured values of several laboratories.
Each numbered part is a random draw from the data of one study; scales do not carry over between parts.

Block 1
Target: Sal-like protein 4, full length isoform B (SALL4, Homo sapiens, UniProt Q9UJQ4-2, residues 1-616)
Technique: universal PBM
Molecule type: double-stranded DNA, one strand shown
Matrix: in vitro
Tested at: not given
Notes: 8-mer, flanks averaged, mean of replicates
Reading: higher = stronger binding
Quantity: E-score
CCCGTCTC: -0.321
ACGATGGC: -0.0309
ATTCAGCC: 0.0395
CACTTCGG: -0.177
AAACCGGA: 0.0496
GGCAGCAC: -0.19
ACCACGAA: -0.0998
AGGATGAG: -0.016
ATAAGTTG: 0.246
AAGCCGCT: -0.238
AGCAGATA: 0.0531
ATGAATTG: 0.238

Block 2
Target: Histone acetyltransferase KAT6A, winged helix 2, GST fusion (KAT6A, Homo sapiens, UniProt Q92794, residues 85-181)
Technique: protein binding microarray
Molecule type: double-stranded DNA, one strand shown
Matrix: in vitro
Tested at: not given
Notes: 8-mer, flanks averaged, mean of 2 arrays, mostly near background
Reference: not given
Reading: higher = stronger binding
Quantity: E-score
Construct (chain): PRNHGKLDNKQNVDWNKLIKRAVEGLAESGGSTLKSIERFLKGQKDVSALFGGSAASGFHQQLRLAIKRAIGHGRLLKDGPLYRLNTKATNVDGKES
AGTCCGAA: -0.0498
GAGCCCAC: 0.00806
CACCGAGC: 0.253
CATAAACA: 0.0828
ACGACTCG: -0.158
AACCCCGA: -0.123
CATCTGGG: 0.0085
ATCCAAAA: 0.131
ATAACTAG: -0.126

Block 3
Target: Interferon regulatory factor 5, full length, phosphomimetic (IRF5, Homo sapiens, UniProt Q13568-2, residues 1-514, K96S/S451D/S453D/S456D/S462D)
Technique: protein-binding microarray
Molecule type: double-stranded DNA, one strand shown
Matrix: in vitro
Tested at: 250 nM
Notes: 60-bp whole probe
Together with: salmon DNA 0.4 mg/ml
Reference: random background probes
Reading: higher = stronger binding
Quantity: log fluorescence
Shared flanks, not repeated: GCCTAGCAC … GTCTTGATTCGCTTGACGCTGCTG
TCAGAAATCACCCTTGGAACTGTGCTA: 0.153 z-score
TGTGTCTGGAATTTTTAGAAGTGCTAG: -0.0285 z-score
TTTGGTATCGGTTTCGGTTAGTGCTAG: 11.6 z-score
TTAGATATCCTTCTCCTTTAGTGCTAG: 0.504 z-score
GACGAACTGGGGACTGGATACGTGCTA: -0.428 z-score
TTAGGTTCCGGTCTCGGTTAGTGCTAG: 1.94 z-score
TTAGAACTGGGGTATCCATTAGTGCTA: 0.272 z-score
TTAGATTTCGGGTTTCGATCAGTGCTA: 8.44 z-score
TCAGTTTTTCATTTTGTACTGTGCTAG: 1.54 z-score
TTAGATCTCCGTATCGATTAGTGCTAG: 3.97 z-score
TTAGGTTTCGGTCTCGGTTAGTGCTAG: 10.4 z-score

Further values, each from its own experiment
PhoQ, residues 284 288 289 292 302 303 HSYLQF  fold induction (PhoP, residues 12 14 15 18 19 TPLRH (Escherichia coli, UniProt P23836); Sort-seq, refers to: YFP reporter; E. coli; PhoQ-PhoP variant library, together with: 10 µM Mg2+; reference: high Mg2+ state, higher = stronger signaling): 0.712

A few entries again (block 1):
AAACCGGA: 0.0496
CCCGTCTC: -0.321
CACTTCGG: -0.177
